Published values pooled from the literature.
Each numbered part is a random draw from the data of one study; scales do not carry over between parts.
Sequence of UniProt P49840 (whole entry, looked up): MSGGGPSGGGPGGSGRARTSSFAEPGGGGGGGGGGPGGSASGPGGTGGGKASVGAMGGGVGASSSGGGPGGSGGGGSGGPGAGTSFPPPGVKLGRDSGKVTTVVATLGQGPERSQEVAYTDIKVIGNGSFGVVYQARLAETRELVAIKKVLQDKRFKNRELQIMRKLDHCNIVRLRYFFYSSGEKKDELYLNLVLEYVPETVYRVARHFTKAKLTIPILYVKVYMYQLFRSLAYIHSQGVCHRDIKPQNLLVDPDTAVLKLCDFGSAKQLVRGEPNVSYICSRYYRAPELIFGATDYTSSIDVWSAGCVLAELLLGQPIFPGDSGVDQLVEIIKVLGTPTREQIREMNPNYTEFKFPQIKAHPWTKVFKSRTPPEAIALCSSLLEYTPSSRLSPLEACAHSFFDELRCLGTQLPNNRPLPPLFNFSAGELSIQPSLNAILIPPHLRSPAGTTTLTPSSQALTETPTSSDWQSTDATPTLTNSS
Sequence of UniProt O75582 (whole entry, looked up): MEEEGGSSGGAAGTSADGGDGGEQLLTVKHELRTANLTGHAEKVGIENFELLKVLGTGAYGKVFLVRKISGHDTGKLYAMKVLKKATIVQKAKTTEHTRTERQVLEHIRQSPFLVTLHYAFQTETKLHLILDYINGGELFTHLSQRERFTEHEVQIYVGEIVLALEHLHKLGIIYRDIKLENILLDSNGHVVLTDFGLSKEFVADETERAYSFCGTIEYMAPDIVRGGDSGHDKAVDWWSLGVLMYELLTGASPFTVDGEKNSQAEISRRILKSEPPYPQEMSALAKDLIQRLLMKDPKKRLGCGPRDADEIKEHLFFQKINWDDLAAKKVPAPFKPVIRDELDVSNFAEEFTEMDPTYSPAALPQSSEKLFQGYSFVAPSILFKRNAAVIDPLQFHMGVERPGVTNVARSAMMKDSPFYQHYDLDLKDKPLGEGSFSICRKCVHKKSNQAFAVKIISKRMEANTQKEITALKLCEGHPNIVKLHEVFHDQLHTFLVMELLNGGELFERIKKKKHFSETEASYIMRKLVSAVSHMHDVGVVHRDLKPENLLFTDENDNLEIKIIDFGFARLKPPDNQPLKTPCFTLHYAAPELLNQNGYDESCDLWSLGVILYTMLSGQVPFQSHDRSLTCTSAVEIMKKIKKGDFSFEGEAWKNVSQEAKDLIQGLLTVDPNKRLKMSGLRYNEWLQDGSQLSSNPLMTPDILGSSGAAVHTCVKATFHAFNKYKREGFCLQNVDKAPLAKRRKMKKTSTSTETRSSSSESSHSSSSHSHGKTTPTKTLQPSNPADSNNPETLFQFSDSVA
Sequence of UniProt Q06418 (whole entry, looked up): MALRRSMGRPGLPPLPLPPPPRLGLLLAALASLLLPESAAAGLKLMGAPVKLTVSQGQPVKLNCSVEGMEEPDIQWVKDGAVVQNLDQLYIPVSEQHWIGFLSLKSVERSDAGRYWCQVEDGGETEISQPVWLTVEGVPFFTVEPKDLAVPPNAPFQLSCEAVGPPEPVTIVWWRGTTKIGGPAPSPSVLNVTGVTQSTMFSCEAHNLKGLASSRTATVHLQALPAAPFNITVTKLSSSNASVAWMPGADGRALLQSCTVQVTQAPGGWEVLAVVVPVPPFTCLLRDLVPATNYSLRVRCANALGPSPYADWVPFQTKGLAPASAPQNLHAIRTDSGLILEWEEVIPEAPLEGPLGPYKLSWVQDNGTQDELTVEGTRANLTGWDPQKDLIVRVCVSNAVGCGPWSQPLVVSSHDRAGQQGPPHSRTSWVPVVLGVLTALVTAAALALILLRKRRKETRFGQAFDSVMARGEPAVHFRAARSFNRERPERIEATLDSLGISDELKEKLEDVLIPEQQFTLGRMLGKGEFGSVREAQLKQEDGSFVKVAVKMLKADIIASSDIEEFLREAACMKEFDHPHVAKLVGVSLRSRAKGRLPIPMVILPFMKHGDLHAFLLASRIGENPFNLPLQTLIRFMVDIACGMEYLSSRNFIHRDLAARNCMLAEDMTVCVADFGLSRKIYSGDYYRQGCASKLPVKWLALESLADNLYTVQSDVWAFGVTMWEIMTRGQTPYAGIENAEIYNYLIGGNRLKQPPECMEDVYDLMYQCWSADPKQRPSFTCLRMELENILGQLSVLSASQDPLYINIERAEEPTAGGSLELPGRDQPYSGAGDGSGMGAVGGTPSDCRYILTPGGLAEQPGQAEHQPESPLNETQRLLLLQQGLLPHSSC
Sequence of UniProt Q9UM73 (whole entry, looked up): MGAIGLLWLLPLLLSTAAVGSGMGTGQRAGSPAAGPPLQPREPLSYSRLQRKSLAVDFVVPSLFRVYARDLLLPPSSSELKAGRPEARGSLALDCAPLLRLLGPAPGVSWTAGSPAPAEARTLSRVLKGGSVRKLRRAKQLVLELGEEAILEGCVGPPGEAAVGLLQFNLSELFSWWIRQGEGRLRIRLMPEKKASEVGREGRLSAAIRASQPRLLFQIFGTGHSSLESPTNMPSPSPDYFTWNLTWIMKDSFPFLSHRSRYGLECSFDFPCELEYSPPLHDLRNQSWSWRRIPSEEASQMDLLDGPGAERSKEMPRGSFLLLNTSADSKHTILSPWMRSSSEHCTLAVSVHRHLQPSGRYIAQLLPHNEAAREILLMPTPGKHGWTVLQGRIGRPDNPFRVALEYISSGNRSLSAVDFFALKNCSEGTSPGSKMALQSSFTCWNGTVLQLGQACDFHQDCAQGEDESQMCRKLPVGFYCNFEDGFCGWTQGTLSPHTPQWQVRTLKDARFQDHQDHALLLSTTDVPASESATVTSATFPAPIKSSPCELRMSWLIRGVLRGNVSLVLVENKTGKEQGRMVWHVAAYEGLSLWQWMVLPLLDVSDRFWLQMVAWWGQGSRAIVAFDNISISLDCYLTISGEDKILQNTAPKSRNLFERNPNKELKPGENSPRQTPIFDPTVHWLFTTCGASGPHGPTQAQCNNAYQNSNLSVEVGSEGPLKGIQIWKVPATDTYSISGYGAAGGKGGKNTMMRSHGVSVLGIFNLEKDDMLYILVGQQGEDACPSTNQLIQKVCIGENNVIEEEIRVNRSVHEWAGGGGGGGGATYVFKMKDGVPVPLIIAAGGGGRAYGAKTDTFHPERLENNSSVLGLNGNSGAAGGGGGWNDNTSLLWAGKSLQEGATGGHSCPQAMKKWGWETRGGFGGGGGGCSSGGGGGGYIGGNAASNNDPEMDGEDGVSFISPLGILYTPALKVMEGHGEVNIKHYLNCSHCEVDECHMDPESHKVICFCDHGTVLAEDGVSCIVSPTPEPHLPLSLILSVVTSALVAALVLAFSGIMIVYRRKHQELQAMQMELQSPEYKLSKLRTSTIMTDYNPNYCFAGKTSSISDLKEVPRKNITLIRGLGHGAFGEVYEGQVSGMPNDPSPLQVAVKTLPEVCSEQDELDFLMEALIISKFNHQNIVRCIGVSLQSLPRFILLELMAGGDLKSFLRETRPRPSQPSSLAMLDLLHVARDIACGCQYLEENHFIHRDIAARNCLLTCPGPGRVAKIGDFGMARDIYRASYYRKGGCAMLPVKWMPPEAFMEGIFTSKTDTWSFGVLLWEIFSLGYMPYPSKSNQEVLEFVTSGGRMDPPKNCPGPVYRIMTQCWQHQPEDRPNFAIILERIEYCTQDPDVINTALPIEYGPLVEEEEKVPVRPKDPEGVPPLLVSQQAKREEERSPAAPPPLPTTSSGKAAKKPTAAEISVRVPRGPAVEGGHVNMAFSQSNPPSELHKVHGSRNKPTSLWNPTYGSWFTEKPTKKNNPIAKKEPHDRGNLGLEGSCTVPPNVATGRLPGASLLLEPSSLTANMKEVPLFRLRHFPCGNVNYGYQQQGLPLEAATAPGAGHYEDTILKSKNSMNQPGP
Sequence of UniProt O43318 (whole entry, looked up): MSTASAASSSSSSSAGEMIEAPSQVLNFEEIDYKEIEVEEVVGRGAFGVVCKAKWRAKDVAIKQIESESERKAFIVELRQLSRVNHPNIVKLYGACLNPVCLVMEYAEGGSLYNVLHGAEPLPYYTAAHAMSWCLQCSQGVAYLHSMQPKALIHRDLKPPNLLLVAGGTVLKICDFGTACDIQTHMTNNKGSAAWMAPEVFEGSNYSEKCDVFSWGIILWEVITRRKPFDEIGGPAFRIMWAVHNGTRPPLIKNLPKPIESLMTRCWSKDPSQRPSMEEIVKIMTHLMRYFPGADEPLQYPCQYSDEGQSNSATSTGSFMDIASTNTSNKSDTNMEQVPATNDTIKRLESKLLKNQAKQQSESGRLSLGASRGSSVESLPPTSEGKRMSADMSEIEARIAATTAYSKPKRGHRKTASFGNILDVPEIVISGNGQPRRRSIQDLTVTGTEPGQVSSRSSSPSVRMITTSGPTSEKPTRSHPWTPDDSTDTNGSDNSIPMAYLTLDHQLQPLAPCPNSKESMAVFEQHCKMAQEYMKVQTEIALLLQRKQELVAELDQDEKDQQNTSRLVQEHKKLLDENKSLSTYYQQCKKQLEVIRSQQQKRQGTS

Set 1
Target: Cytoplasmic tyrosine-protein kinase BMX (BMX, Homo sapiens, UniProt P51813)
Sequence of UniProt P51813 (whole entry, looked up): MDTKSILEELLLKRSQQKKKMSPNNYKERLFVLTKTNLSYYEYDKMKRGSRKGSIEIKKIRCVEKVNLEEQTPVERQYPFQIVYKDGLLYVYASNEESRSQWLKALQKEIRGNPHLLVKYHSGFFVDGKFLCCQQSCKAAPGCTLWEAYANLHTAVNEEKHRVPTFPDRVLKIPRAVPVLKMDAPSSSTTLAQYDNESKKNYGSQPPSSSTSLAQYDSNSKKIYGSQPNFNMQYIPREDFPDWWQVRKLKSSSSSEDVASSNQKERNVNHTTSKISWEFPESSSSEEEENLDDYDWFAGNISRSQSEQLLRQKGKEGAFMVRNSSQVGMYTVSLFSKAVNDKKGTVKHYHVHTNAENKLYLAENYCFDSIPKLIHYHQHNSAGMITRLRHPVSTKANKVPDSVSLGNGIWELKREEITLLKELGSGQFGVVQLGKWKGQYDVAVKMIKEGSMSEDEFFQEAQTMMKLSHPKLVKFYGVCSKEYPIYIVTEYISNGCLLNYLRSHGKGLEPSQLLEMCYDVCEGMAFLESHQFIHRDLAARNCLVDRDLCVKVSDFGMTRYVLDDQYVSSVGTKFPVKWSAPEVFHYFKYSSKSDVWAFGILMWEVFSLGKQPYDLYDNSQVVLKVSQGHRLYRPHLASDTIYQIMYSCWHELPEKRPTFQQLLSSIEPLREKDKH
Observed: enzyme activity
Action: inhibitor
Tested at: 0.5 µM
Baseline: control
With `N#Cc1cnc2cnc(NCc3cccnc3)cc2c1Nc1ccc(F)c(Cl)c1` the remaining activity was 84%.
For `CN(C)S(=O)(=O)c1ccc2c(c1)/C(=C/c1cc3c([nH]1)CCCC3)C(=O)N2`, the remaining activity was 103%.
For `CCCNC(=O)Nc1ccc(Oc2ncnc3cc(OC)c(OC)cc23)cc1Cl`, the remaining activity was 93.6%.
The remaining activity of `CCCCc1c(-c2ccc(OC)cc2)[nH]c2nccnc12` is reported as 82.2%.
With `c1ccc(-c2n[nH]c3c2oc2ccccc23)cc1` the remaining activity was 106%.
For `COc1ccc(COc2ccc(Cc3cnc(N)nc3N)cc2OC)cc1`, the remaining activity was 93.4%.
`Cc1ccc(S(=O)(=O)/C=C/C#N)cc1` has a remaining activity of 105%.
The remaining activity of `O=c1cc(N2CCOCC2)oc2c(-c3ccccc3)cccc12` is reported as 96.9%.

Set 2
SMILES: O=C(Nc1cccnn1)N1CC(C/C=C/c2cncc(Oc3ccc(C(F)(F)F)cn3)n2)C1
Observed: cell-free assay
Method: competition with immobilised ligand
Tested at: 1 µM
MAPK4 (Homo sapiens, UniProt P31152) — remaining binding: 100%.
PIK3CA (Homo sapiens, UniProt P42336, E545K) — remaining binding: 81%.
It gave 62% for remaining binding (FLT3 (Homo sapiens, UniProt P36888, N841I)).
The remaining binding was 72% (CSNK2A1 (Homo sapiens, UniProt P68400)).
For PRPF4B (Homo sapiens, UniProt Q13523): remaining binding read 100%.
It gave 100% for remaining binding (PRKACB (Homo sapiens, UniProt P22694)).
It gave 100% for remaining binding (FLT4 (Homo sapiens, UniProt P35916)).
It gave 60% for remaining binding (Tyrosine-protein kinase ABL1, non-phosphorylated (ABL1, Homo sapiens, UniProt P00519, T315I)).
It gave 100% for remaining binding (CSF1R (Homo sapiens, UniProt P07333)).
It gave 95% for remaining binding (PAK5 (Homo sapiens, UniProt Q9P286)).
The remaining binding was 100% (TYRO3 (Homo sapiens, UniProt Q06418)).
PTK6 (Homo sapiens, UniProt Q13882) — remaining binding: 91%.
It gave 93% for remaining binding (MAP3K7 (Homo sapiens, UniProt O43318)).
It gave 92% for remaining binding (GSK3A (Homo sapiens, UniProt P49840)).
For MATK (Homo sapiens, UniProt P42679): remaining binding read 59%.
Ribosomal protein S6 kinase alpha-5, C-terminal kinase domain (RPS6KA5, Homo sapiens, UniProt O75582) — remaining binding: 100%.
For ALK (Homo sapiens, UniProt Q9UM73): remaining binding read 97%.
The remaining binding was 100% (PTK2B (Homo sapiens, UniProt Q14289)).
For RET (Homo sapiens, UniProt P07949, V804M): remaining binding read 100%.
The remaining binding was 100% (DAPK2 (Homo sapiens, UniProt Q9UIK4)).

Set 3
Cell line: HH
Tested at: 2 µM
Time: 48 h
Baseline: untreated
`O=C1NC(=O)/C(=C/c2ccc(-c3ccc(F)cc3O)o2)S1` has a viability of 93.9%.
With `COc1cc2c(Oc3ccc(NC(=O)C4(C(=O)Nc5ccc(F)cc5)CC4)cc3F)ccnc2cc1OCCCN1CCOCC1` the viability was 40.5%.
With `COc1nccc(-c2c(-c3ccc(F)cc3)ncn2[C@H]2CC[C@H](O)CC2)n1` the viability was 75.4%.
`CO[C@H]1C[C@@H]2CC[C@@H](C)[C@@](O)(O2)C(=O)C(=O)N2CCCC[C@H]2C(=O)O[C@H]([C@H](C)C[C@@H]2CC[C@@H](OC(=O)C(C)(CO)CO)[C@H](OC)C2)CC(=O)[C@H](C)/C=C(\C)[C@@H](O)[C@@H](OC)C(=O)[C@H](C)C[C@H](C)/C=C/C=C/C=C/1C` gave a viability of 43.2%.
`CCCCCCCCCCCCCCCCCCOP(=O)([O-])OC1CC[N+](C)(C)CC1` has a viability of 88.6%.
The viability of `CNC(=O)CN1CCC(Oc2cc3c(Nc4cccc(Cl)c4F)ncnc3cc2OC)CC1` is reported as 78.3%.
With `C=CC(=O)N1CCC[C@@H](n2nc(-c3ccc(Oc4ccccc4)cc3)c3c(N)ncnc32)C1` the viability was 52.9%.
With `CCCCCCCCCCCCc1ccc(S(=O)(=O)Nc2nncs2)cc1` the viability was 81.9%.
With `COc1cc2nccc(Oc3ccc(NC(=O)Nc4ccc(F)cc4F)c(F)c3)c2cc1OC` the viability was 87%.

Set 4
Species: human
Matrix: microsomes or S9
Tested at: 2 µM
Time: 0.5 h
With `O=C(O)c1ccc(C2(c3ccc(C(=O)O)cc3)OC(=O)c3ccccc32)cc1` the remaining compound was > 100%.
`CC(C)(C)c1ccc(O)c(NC(=O)c2cc(Br)c[nH]2)c1` gave a remaining compound of 0.328%.
The remaining compound of `Cn1cc(C(NC(=O)c2cc3sccc3[nH]2)[C@H]2C[C@@H](O)C2)cn1` (some centres unmarked) is reported as 95.1%.
The remaining compound of `Cc1nc(Oc2ccc3c(c2)OCO3)c2c3c(sc2n1)CCC3` is reported as 0.308%.
`O=C(Nc1ccc2c(c1)OCO2)C1CCN(Cc2nnc(-c3ccc(Br)s3)o2)CC1` gave a remaining compound of 27.2%.
For `O=S(=O)(Nc1ccc(N2CCOCC2)cc1)c1ccc(-c2nnc(C3CCC3)o2)o1`, the remaining compound was 51.1%.
The remaining compound of `Cc1cc(C)n(-c2ncnc3sc4c(c23)CC(C)CC4)n1` (centres unmarked) is reported as 3.36%.
The remaining compound of `CC(C)C1(C)SC(NC2CC3CCC2C3)=NC1=O` (centres unmarked) is reported as 95.6%.
For `O=C(c1cc2n(n1)CCN(C(=O)c1cccc3[nH]ccc13)C2)N1CCOCC1`, the remaining compound was 92.6%.
With `Cc1cccc(OCCn2cnc3c(cnn3-c3cccc(C(F)(F)F)c3)c2=O)c1` the remaining compound was > 99%.

For quick reference, copied from above (set 4):
The remaining compound of `Cc1nc(Oc2ccc3c(c2)OCO3)c2c3c(sc2n1)CCC3` is reported as 0.308%.
The remaining compound of `CC(C)C1(C)SC(NC2CC3CCC2C3)=NC1=O` (centres unmarked) is reported as 95.6%.
The remaining compound of `Cc1cc(C)n(-c2ncnc3sc4c(c23)CC(C)CC4)n1` (centres unmarked) is reported as 3.36%.
For `O=S(=O)(Nc1ccc(N2CCOCC2)cc1)c1ccc(-c2nnc(C3CCC3)o2)o1`, the remaining compound was 51.1%.
